Measurements collected from several papers.
A part holds a random share of what one study measured.

Study 1
Target: RING finger protein unkempt homolog, zinc fingers 1-6, GST-SBP tag (UNK, Homo sapiens, UniProt Q9C0B0, residues 30-357)
Chain of UniProt Q9C0B0 (30-357, looked up): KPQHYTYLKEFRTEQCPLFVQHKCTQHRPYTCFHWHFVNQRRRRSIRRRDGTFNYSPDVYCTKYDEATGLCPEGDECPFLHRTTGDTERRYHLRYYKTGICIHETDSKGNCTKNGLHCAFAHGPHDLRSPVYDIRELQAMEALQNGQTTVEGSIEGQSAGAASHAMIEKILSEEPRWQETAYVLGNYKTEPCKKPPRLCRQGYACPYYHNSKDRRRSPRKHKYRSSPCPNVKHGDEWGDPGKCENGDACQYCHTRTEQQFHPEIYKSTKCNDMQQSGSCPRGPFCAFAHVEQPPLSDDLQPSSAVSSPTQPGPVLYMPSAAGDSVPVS
Method: RNA Bind-n-Seq
Form: RNA
Matrix: in vitro
Concentration: not given
Setting: RNA with constant flanks, human and mouse sites, ends assumed
Relative to: input RNA pool
Reading: higher = stronger binding
Shared flanks, not repeated: GGGAGUUCUACAGUCCGACGAUC … CAACAGAGGAUUGAGCAUCA
| Strand | bound/input enrichment [ratio] |
| --- | --- |
| UUCGCCUGCGCCAAGCUCGCCUGCACCCCCUCUCUGAUCCGAGCUGGAUCCAGAGUUGCAUACAGACCAAUUUCUGCAUCAGUGUUAUCUCGACCAGAGGCUAGUAGGACUGGAGAGGGC | 0.137 |
| GAAGCUAUGCGAAAUUAUUUAAAAGAACGAGGGGAUCAAACAGUGCUCAUUCUUCAUGCAAAAGUUGCACAGAAGUCUUACGGAAAUGAAAAACGAUUUUUUUGCCCUCCUCCUUGUGUG | 0.745 |
| UUUGGCUCCUGUUACUUGCCUGCGUGGAGAGUUAAGCUGGAGCUCUGCUUUGAACGAUAAAUAAAAGCUUAGCCUCGACGAGACAUAAAUGGAUCUAAAGACAGCGGUGUUCAACGCAGC | 0.104 |
| CAGCCAGCAAACUUGAUAGUGCUUUUGGUCCUAGAUGAUUUUUAUCAAAUAAGUGGAUUGAUUAGUUAAGUUCAGGUAAUGUUUAUGUAAUGAAAAACAAAUAGCAUCCUUCUUGUUUCA | 1.75 |
| CGGGCCGGGCCUGCAGGAGCCGGGCCGCCGAGGUCGGGGCUGGUUGAACUCAUGGACCUGAUACUUUUCUCUUGAGAAGCAAACCAGCCCAAAAGAAAAAUGGCGUUUGUUGCAACACAG | 0.123 |
| CUCACAGGUAGAAUGAAUUGUGUCCUGGCCACAUAUGGAGGCAUUGCUUUGCUGGUCUUAUACUUCAAGUUAAGGCCUAAGAAAACUCCAGCUGUGAAAGCAACAUAAAUGGAUUUUGAA | 0.172 |
| GACAUCCAGGCGUGUGUGGACCAUGUGAACCUGGUGGUCCAUGAGGAGCAUGAGCGGAUUUUGGCCAUCGGCUUGAUUAAUGAAGCCCUGGAUGAAGGGGACGCUCAGAAGACUCUGCAG | 0.16 |
| AAAUUCAAAGGCCCCUUCACAGAUGUAGUCACUACAAAUCUUAAAUUGCGAAAUCCAUCGGAUAGAAAAGUGUGUUUCAAAGUGAAGACUACAGCACCUCGCCGGUACUGUGUGAGGCCC | 0.282 |

Study 2
Target: Interferon regulatory factor 7, full length, phosphomimetic (IRF7, Homo sapiens, UniProt Q92985, residues 1-503, S101K/S471D/S472D/S475D/S476D/S477D/S483D/S484D/S487D)
Method: protein-binding microarray
Form: double-stranded DNA, one strand shown
Matrix: in vitro
Concentration: 250 nM
Setting: 60-bp whole probe
Added: salmon DNA 0.4 mg/ml
Relative to: random background probes
Reading: higher = stronger binding
Shared flanks, not repeated: GCCTAGCAC … GTCTTGATTCGCTTGACGCTGCTG
Construct (chain): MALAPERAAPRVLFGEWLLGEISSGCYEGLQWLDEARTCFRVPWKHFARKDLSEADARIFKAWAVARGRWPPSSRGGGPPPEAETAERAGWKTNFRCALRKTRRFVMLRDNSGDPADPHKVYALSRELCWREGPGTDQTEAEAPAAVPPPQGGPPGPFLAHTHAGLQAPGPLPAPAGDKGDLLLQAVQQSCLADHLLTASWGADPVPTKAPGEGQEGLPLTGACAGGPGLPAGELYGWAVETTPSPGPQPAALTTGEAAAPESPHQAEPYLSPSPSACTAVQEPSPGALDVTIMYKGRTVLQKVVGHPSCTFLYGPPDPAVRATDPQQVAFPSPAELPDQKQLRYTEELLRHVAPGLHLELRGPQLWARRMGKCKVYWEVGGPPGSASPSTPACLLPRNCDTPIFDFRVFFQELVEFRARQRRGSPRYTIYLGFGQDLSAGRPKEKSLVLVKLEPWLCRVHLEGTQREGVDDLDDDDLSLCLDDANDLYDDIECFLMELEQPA
| Strand | log fluorescence [z-score] |
| --- | --- |
| TCATGCTTCTGTATGGGACTGTGCTAG | -0.129 |
| TTAGATATCGGGTATCAATTAGTGCTA | 0.174 |
| ATAGGTCTCCTACTGCTTTAGTGCTAG | -0.254 |
| TGAGGTATCGACTTTCGGTTAGTGCTA | 2.48 |
| TCATTTTTTTCCCTGAAACTGTGCTAG | 1.08 |
| TTAGATTTCGGGACTGGAGTAGTGCTA | 0.222 |
| TTAGATTTCGGTTATCGATTAGTGCTA | 2.74 |
| GACGGACTGTACTTTCGGGACGTGCTA | -0.331 |
| GTAGGTCTCCTACTGCTTTAGTGCTAG | -0.524 |
| TTAAGTCTCCTACTGCTTTAGTGCTAG | -0.0875 |
| GAAAATTTCTTCCTCCCCCTGTGCTAG | 0.35 |
| TCCTTTTAATTTTTAACGAGGTGCTAG | 1.58 |
| GACGGTATCGAGTTTCGGGACGTGCTA | 3.28 |
| GAAGATATCAGTATCGAGACGTGCTAG | -0.144 |
| TCATTTCCAATTCTCTTACTGTGCTAG | 2.67 |
| TTCGGTCTCGGTCTCGGTTAGTGCTAG | 2.49 |
| TCAATTTTCACGGTGGGACTGTGCTAG | 0.276 |
| ACCATTTTTTTTCACTATTGGTGCTAG | 0.764 |
| TTAGTTATCGGGTTTCGATTAGTGCTA | 7.04 |

Study 3
Target: Fragile X messenger ribonucleoprotein 1, C-terminal low-complexity region (Fmr1, Mus musculus, UniProt P35922)
Method: RNA Bind-n-Seq
Form: RNA
Matrix: in vitro
Concentration: 200 nM
Setting: whole 134-nt RNA, ends assumed
Added: 150 mM KCl
Relative to: input library
Reading: higher = stronger binding
Shared flanks, not repeated: GGGAGUUCUACAGUCCGACGAUC … UGGAAUUCUCGGGUGUCAAGG
| Strand | log2 enrichment |
| --- | --- |
| GCAGGAAGUAAAAACAAAUGGAAAUGCUUCGGUUAGUGGCAGGGGUGGGGGUUGCUAAGGAAAGGGUGGGAUGGGAGUGGGUAAAGAGUU | 0.0946 |
| CUGUGCUACACAUCGUAUGUACCGAAUCGGGGAAAAAGGGGUUUUUUUGGGGAAAAAGGGGAAAGUAUUAUGUUACGCCGUUCGGAUCUG | 0.00208 |
| CACAGACAACACGCACCCACACAGACACAUAGGGAAGGGGUUGGGAUGGGGACAGGGUGCACAGCAGGGCGGGGUAGGACCCCAGCCCCU | 1.26 |
| AGUCCUGUGCUACACAUCGUAUGUACCGAAUCGGGGUGGGGAAAGGGGUUUUUGGGGAAAGUAUUAUGUUACGCCGUUCGGAUCUGCACU | 0.921 |
| UCCUGUGCUACACAUCGUAUGUACCGAAUCGGCCCCCCGGGCCCCCCGGGCCCCCCGGGGAAAGUAUUAUGUUACGCCGUUCGGAUCUGC | -0.526 |
| UCCUGUGCUACACAUCGUAUGUACCGAAUCGGGGAGGGGUUUUUGGGGAAAAAAAGGGGAAAGUAUUAUGUUACGCCGUUCGGAUCUGCA | 0.656 |
| GCAGGAAGUAAAAACAAUUGGAAAUGCUUCGGAUAGUGGCAGGGGUGGGGGUUGCUAAGGAAAGGGUGGGAUGGGAGUGGGUAAAGAGUU | 0.23 |
| CUCAAGUCCUGUGCUACACAUCGUAUGUACCGAAUCGGGCCGGGCCGGGGCCGGAAAGUAUUAUGUUACGCCGUUCGGAUCUGCACUUCC | 0.0169 |
| GCAGGAAGUAAAAACAAAUGGAAAUGCUUCGGAUAGUGGAAGGGGUGGGGGUUGCUAAGGAAAGGGUGGGAUGGGAGUGGGUAAAGAGUU | 0.159 |

Study 4
Target: Histone acetyltransferase KAT6A, both winged helices, GST fusion (KAT6A, Homo sapiens, UniProt Q92794, residues 1-181)
Method: protein binding microarray
Form: double-stranded DNA, one strand shown
Matrix: in vitro
Concentration: not given
Setting: 8-mer, flanks averaged, mean of 2 arrays, mostly near background
Relative to: not given
Reading: higher = stronger binding
Construct (chain): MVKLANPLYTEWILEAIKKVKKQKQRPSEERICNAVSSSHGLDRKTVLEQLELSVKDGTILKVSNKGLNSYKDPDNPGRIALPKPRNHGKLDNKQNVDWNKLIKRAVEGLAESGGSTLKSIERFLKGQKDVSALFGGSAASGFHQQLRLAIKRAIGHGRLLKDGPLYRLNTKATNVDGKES
| Strand | E-score |
| --- | --- |
| AGCTGCCG | 0.13 |
| AGTGTATA | -0.0343 |
| GTATGCGA | 0.188 |
| CGGTGATC | 0.0792 |
| TTGACCAA | -0.26 |
| TAGCACAA | -0.152 |
| AGGCCTTA | -0.0909 |
| CAGTAACA | -0.0288 |
| AAACGCTC | 0.142 |
| GACGTTGC | 0.146 |
| ATGGGGAC | -0.109 |
| GATAAGGA | -0.0541 |
| AACAATAG | -0.131 |
| AGCCATAT | -0.17 |
| TCTGTCCA | -0.0571 |
| CAGCTCTA | -0.0624 |
| AAGTGATG | -0.246 |
| CCAGGTTC | -0.131 |
| ACCCTCCA | -0.257 |
| ACGCCACC | -0.0798 |
| CTGGCCCA | -0.227 |
| AAGATACA | -0.155 |
| ATTACAGG | 0.00963 |

Repeated from above (study 3):
| Strand | log2 enrichment |
| --- | --- |
| AGUCCUGUGCUACACAUCGUAUGUACCGAAUCGGGGUGGGGAAAGGGGUUUUUGGGGAAAGUAUUAUGUUACGCCGUUCGGAUCUGCACU | 0.921 |
| UCCUGUGCUACACAUCGUAUGUACCGAAUCGGCCCCCCGGGCCCCCCGGGCCCCCCGGGGAAAGUAUUAUGUUACGCCGUUCGGAUCUGC | -0.526 |
| CACAGACAACACGCACCCACACAGACACAUAGGGAAGGGGUUGGGAUGGGGACAGGGUGCACAGCAGGGCGGGGUAGGACCCCAGCCCCU | 1.26 |
| UCCUGUGCUACACAUCGUAUGUACCGAAUCGGGGAGGGGUUUUUGGGGAAAAAAAGGGGAAAGUAUUAUGUUACGCCGUUCGGAUCUGCA | 0.656 |
| GCAGGAAGUAAAAACAAAUGGAAAUGCUUCGGUUAGUGGCAGGGGUGGGGGUUGCUAAGGAAAGGGUGGGAUGGGAGUGGGUAAAGAGUU | 0.0946 |
| CUGUGCUACACAUCGUAUGUACCGAAUCGGGGAAAAAGGGGUUUUUUUGGGGAAAAAGGGGAAAGUAUUAUGUUACGCCGUUCGGAUCUG | 0.00208 |
| GCAGGAAGUAAAAACAAUUGGAAAUGCUUCGGAUAGUGGCAGGGGUGGGGGUUGCUAAGGAAAGGGUGGGAUGGGAGUGGGUAAAGAGUU | 0.23 |
| GCAGGAAGUAAAAACAAAUGGAAAUGCUUCGGAUAGUGGAAGGGGUGGGGGUUGCUAAGGAAAGGGUGGGAUGGGAGUGGGUAAAGAGUU | 0.159 |
